Measured values of several laboratories.
Numbers after ± are the reported error.

SMILES	test	system	conditions	Cmax
Cc1cn(C(=O)c2c(-c3c(Cl)cc(Cl)cc3Cl)noc2C(C)(C)F)c2cccc(/C=C/C(=O)O)c12		human patients	1400 mg bid, cycle 1 day 1	34600 ng/mL
CO[C@@H]1[C@H](N(C)C(=O)c2ccccc2)C[C@H]2O[C@]1(C)n1c3ccccc3c3c4c(c5c6ccccc6n2c5c31)C(=O)NC4		human patients, induction therapy, plasma	oral, 50 mg twice daily, day 21, mean, with micafungin	1990 ng/mL
C[C@H]1CN(C(=O)CC#N)[C@]12CCN(c1ncnc3[nH]ccc13)C2		healthy human, plasma	oral, 6 mg single, day 1, geometric mean	51 ng/mL
Cc1cc(C)c(CNC(=O)c2cc(Cl)c3c(c2C)O[C@@](C)([C@H]2CC[C@H](N(C)C)CC2)O3)c(=O)[nH]1	geometric LS mean	healthy male humans, plasma	oral, dose not given, with: fluconazole	132 ng/mL
C[C@H](O)c1cc(C(=O)N[C@@H](C)Cn2ccc(-c3ccc(C#N)c(Cl)c3)n2)n[nH]1		healthy male human, plasma	intravenous infusion, 100 µg 14C-labelled, 15 min infusion, microtracer, geometric mean	1940 pg eq/mL
N#CCC1CCN(c2nc(Nc3ccc(N4CCC(O)CC4)cc3)c3c(=O)[nH]ncc3n2)CC1		human, plasma	oral, 40 mg once daily, day 1	136 ng/mL
N#Cc1cc(NC(=O)[C@H]2c3ccccc3C(=O)N(CC(F)(F)F)[C@@H]2c2cccnc2)ccc1F		human, plasma	oral, 300 mg, median	567 ng/mL
NC[C@@]1(CC(=O)O)[C@@H]2CC[C@H]3C[C@@H]2[C@@H]1C3		human, normal renal function, plasma	geometric least squares mean	360 ng/mL
CCOc1c([C@H](C)n2nc(C)c3c(N)ncnc32)cc(Cl)c(F)c1[C@@H]1CNC(=O)C1		human Hodgkin lymphoma patients	oral, 20 mg, day 15	1930 nM
CC(C)NC(=O)COc1cccc(-c2nc(Nc3ccc4[nH]ncc4c3)c3ccccc3n2)c1		human male, plasma	oral, 200 mg once daily, day 12, fed, geometric mean, with: dabigatran etexilate	2180 ng/mL
O=C(Nc1cnccc1Cl)N1CCN(Cc2ccc3c(c2)OC(F)(F)O3)CC1		human healthy young men, plasma	oral, 75 mg once daily, day 10, multiple dose mean	942 ng/mL
CCn1cc(C(=O)N2CCOCC2)c(=O)c2cc(NC3Cc4ccccc4C3)cnc21		human male, fed, plasma	oral, 900 mg twice daily, day 1, tablet, arithmetic mean	3960 ng/mL
COc1ccc([C@@H](O)c2cc(-c3ncnc4cc(N5CCOCC5)ccc34)c(F)cc2Cl)nn1		human, plasma	oral, 400 mg twice daily, single dose, geometric mean	3190 ng/mL
Cc1nc(Nc2ncc(C(=O)Nc3c(C)cccc3Cl)s2)cc(N2CCN(CCO)CC2)n1		human patients	oral, 85 mg/m^2, day 8	200 ± 68 ng/mL
C[C@@H](Oc1cc(-c2cnn(C3CCNCC3)c2)cnc1N)c1c(Cl)ccc(F)c1Cl		human patients, plasma	oral, dose not given, cycle 2 day 1, mean, with: avelumab	331 ng/mL
CC#CC(=O)N1CCC[C@H]1c1nc(-c2ccc(C(=O)Nc3ccccn3)cc2)c2c(N)nccn12		human, plasma	oral, 50 mg single dose	166 ng/mL
C#C[C@]1(CO)O[C@@H](n2cnc3c(N)nc(F)nc32)C[C@@H]1O		human, fed, plasma	oral, 30 mg, geometric mean	535 nM
CC(C)CCC[C@@H](C)[C@H]1CC[C@H]2[C@@H]3C(O)CC4=CC(=O)CC[C@]4(C)[C@H]3CC[C@]12C (some centres unmarked)		human, plasma	concentration not given, endogenous baseline diurnal	115 ± 20 nM
COc1ccc2nc([S@@+]([O-])Cc3ncc(CO)c(OC)c3C)[nH]c2c1		human, dried plasma spots	5 mg racemic omeprazole	8.3 nM
Cc1nc(-c2ccc(OCC(C)C)c(C#N)c2)sc1C(=O)O		human, plasma	oral, 20 mg once daily, with: verinurad 2.5 mg	552 ng/mL

Repeated from above:
SMILES	test	system	conditions	Cmax
COc1ccc([C@@H](O)c2cc(-c3ncnc4cc(N5CCOCC5)ccc34)c(F)cc2Cl)nn1		human, plasma	oral, 400 mg twice daily, single dose, geometric mean	3190 ng/mL
Cc1nc(Nc2ncc(C(=O)Nc3c(C)cccc3Cl)s2)cc(N2CCN(CCO)CC2)n1		human patients	oral, 85 mg/m^2, day 8	200 ± 68 ng/mL
C[C@@H](Oc1cc(-c2cnn(C3CCNCC3)c2)cnc1N)c1c(Cl)ccc(F)c1Cl		human patients, plasma	oral, dose not given, cycle 2 day 1, mean, with: avelumab	331 ng/mL
